Experimental data from different studies.
Every numbered part comes from another study and shows a few of its results, in no order.
Chain of UniProt Q13555 (whole entry, looked up): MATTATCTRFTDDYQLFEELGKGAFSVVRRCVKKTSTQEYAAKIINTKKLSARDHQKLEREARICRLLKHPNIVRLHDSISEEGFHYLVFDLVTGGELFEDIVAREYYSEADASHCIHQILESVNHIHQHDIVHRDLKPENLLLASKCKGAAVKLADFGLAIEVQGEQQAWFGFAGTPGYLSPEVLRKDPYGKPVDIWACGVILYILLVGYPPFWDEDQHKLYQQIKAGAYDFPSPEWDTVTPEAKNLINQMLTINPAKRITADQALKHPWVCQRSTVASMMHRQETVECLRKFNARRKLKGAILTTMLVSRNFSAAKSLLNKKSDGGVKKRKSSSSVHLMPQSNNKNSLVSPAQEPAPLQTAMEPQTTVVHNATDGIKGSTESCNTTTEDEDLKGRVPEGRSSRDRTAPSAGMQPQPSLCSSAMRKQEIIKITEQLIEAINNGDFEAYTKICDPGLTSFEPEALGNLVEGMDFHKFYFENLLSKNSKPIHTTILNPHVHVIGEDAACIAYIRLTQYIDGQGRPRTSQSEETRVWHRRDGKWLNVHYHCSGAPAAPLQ
Chain of UniProt P10721 (whole entry, unmodified, looked up): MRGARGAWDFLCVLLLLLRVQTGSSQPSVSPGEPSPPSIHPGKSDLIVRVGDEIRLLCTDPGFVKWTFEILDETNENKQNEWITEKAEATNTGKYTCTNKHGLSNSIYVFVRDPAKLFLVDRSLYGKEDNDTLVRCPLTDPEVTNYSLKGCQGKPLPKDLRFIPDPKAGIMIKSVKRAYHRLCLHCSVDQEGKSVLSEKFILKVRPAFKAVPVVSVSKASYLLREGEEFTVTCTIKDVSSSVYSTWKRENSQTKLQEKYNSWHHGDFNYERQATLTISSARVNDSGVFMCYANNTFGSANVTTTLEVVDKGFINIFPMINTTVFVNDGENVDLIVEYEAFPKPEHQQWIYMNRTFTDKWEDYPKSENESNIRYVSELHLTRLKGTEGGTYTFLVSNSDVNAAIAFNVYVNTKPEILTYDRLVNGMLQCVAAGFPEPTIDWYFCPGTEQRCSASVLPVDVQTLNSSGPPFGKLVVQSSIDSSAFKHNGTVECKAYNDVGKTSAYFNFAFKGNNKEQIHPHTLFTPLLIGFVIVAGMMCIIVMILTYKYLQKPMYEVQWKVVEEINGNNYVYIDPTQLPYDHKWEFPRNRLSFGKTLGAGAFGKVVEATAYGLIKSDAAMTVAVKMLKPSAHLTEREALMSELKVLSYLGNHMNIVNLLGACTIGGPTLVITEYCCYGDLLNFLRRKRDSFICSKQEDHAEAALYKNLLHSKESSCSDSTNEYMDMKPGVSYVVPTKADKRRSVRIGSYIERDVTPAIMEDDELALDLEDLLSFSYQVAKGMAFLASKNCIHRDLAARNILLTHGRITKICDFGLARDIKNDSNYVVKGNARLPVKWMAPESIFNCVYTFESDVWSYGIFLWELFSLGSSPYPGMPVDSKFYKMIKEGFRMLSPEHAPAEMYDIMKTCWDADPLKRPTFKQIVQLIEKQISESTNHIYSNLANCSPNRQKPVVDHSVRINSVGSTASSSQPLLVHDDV
Chain of UniProt O00329 (whole entry, looked up): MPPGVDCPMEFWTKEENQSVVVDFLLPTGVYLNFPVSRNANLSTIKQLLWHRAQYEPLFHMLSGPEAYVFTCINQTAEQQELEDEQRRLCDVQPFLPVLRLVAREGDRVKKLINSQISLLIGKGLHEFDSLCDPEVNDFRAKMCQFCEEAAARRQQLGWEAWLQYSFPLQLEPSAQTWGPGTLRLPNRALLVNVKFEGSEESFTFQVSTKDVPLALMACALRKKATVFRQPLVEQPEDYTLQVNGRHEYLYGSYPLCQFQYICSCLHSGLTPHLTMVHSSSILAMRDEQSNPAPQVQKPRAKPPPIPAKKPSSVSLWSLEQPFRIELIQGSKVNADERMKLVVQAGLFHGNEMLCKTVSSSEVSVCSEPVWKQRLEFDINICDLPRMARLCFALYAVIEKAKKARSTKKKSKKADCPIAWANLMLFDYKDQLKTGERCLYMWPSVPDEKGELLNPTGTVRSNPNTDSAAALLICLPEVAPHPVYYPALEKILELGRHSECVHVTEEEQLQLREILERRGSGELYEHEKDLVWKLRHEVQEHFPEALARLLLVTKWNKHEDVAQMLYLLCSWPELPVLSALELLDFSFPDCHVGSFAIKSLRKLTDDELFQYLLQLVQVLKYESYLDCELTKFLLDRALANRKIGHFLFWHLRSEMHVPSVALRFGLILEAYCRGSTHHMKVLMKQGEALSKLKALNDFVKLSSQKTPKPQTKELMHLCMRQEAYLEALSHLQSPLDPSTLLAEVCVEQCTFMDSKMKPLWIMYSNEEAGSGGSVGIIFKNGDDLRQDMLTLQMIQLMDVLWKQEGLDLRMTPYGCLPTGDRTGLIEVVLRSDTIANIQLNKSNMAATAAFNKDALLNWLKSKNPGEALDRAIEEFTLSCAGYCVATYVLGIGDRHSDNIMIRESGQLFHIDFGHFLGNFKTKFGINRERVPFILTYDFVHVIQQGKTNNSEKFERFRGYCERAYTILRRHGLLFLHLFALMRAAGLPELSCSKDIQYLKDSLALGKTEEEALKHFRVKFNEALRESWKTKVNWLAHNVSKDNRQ
Chain of UniProt P00519 (whole entry, unmodified, looked up): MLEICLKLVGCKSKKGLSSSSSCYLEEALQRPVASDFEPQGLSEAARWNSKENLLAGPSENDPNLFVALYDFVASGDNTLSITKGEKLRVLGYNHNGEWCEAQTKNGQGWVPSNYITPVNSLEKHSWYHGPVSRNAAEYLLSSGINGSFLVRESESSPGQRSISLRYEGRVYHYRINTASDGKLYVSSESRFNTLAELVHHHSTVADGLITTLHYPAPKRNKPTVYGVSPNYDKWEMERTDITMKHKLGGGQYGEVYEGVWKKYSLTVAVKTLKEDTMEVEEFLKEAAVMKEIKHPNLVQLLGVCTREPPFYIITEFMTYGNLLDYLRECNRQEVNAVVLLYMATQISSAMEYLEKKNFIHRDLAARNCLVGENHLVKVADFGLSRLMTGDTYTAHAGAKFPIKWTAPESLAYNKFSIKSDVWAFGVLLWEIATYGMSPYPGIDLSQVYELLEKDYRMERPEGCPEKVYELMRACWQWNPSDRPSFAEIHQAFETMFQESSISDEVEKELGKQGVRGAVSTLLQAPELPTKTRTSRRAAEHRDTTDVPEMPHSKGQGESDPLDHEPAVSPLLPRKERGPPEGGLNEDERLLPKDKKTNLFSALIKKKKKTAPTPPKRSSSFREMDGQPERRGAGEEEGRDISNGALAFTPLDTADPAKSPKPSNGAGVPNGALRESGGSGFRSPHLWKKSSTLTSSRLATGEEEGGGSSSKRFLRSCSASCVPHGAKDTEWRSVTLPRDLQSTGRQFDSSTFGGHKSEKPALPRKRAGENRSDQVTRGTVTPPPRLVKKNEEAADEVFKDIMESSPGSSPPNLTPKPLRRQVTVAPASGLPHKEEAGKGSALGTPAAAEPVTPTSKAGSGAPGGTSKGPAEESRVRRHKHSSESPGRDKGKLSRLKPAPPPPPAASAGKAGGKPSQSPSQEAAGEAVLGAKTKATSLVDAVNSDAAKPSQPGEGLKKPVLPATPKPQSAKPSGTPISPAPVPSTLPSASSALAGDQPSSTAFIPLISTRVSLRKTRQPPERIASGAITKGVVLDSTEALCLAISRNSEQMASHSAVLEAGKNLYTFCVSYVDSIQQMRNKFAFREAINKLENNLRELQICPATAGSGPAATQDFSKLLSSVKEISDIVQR
Chain of UniProt P36507 (whole entry, looked up): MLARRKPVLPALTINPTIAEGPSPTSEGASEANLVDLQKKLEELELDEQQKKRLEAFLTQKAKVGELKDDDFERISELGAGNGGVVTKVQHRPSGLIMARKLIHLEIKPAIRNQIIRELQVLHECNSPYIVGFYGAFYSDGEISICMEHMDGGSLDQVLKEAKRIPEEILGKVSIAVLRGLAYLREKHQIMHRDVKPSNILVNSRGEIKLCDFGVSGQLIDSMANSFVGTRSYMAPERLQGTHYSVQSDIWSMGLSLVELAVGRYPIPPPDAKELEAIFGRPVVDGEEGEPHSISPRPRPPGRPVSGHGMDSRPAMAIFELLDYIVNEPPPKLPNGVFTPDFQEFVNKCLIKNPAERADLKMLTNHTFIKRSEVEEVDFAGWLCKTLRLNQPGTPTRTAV
Chain of UniProt P52564 (whole entry, looked up): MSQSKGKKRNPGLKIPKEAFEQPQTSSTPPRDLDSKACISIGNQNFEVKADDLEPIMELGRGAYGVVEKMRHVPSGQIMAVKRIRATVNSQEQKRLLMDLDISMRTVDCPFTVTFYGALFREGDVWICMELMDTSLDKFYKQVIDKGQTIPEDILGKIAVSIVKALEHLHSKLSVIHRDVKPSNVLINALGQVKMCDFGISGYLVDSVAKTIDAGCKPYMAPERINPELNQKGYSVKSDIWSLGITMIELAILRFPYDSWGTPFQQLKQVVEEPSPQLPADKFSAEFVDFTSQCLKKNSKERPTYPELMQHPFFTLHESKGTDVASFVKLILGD

Block 1 — observed: enzyme activity; mode: inhibitor; concentration: 0.5 µM; relative to: control; measurement: remaining activity
Target: MAP kinase-activated protein kinase 5 (MAPKAPK5, Homo sapiens, UniProt Q8IW41)
Target sequence (Q8IW41 1-473): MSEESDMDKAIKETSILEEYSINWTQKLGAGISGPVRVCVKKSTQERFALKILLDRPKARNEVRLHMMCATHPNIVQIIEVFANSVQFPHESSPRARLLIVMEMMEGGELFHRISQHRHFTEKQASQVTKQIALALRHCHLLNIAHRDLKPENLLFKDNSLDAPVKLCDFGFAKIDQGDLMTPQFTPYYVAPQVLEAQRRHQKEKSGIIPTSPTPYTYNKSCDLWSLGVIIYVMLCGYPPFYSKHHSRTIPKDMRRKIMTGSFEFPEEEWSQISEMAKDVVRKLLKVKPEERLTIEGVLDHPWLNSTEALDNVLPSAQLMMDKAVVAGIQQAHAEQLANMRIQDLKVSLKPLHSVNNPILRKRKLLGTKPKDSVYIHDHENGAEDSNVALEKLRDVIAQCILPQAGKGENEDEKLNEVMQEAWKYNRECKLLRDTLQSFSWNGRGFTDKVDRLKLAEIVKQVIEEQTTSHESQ
O=c1cc(N2CCOCC2)oc2c(-c3ccccc3)cccc12: 94.1%
c1ccc2c(-c3ccncc3)c[nH]c2c1: 96.1%
O=Nc1c(-c2c(O)[nH]c3cc(Br)ccc23)[nH]c2ccccc12: 82.7%
CN(C)S(=O)(=O)c1ccc2c(c1)/C(=C/c1cc3c([nH]1)CCCC3)C(=O)N2: 99.8%
CCCNC(=O)Nc1ccc(Oc2ncnc3cc(OC)c(OC)cc23)cc1Cl: 92.2%
COc1cccc(-c2cc(=O)c3ccccc3o2)c1N: 122%
O=C1NC(=O)c2c1c1c3ccccc3[nH]c1n1cncc21: 123%
O=C1NC(=O)c2c1c1c3ccccc3[nH]c1c1[nH]c3cc(Br)ccc3c21: 86.2%
c1ccc(-c2n[nH]c3c2oc2ccccc23)cc1: 103%
COc1ccc2c(c1)c(C1=C(c3c[nH]c4ccccc34)C(=O)NC1=O)cn2CCCN(C)C: 98.1%
O=C1Nc2ccccc2/C1=C\c1c(Cl)[nH]c2ccccc12: 121%
Cc1ccc(S(=O)(=O)/C=C/C#N)cc1: 88.9%
Oc1cccc(-c2nc(N3CCOCC3)c3oc4ncccc4c3n2)c1: 85.7%
Cc1cc(Nc2cc(N3CCN(C)CC3)nc(Sc3ccc(NC(=O)C4CC4)cc3)n2)[nH]n1: 95.8%
CCCCc1c(-c2ccc(OC)cc2)[nH]c2nccnc12: 95.3%
CN1CCN(c2ccc3nc(-c4c(N)c5c(F)cccc5[nH]c4=O)[nH]c3c2)CC1: 93.9%
N#Cc1cnc2cnc(NCc3cccnc3)cc2c1Nc1ccc(F)c(Cl)c1: 99.6%
O=C1Nc2ccc(Br)cc2/C1=C/c1cc2c([nH]1)CCCC2: 90.6%
O=C1Cc2c([nH]c3ccc(Br)cc23)-c2ccccc2N1: 94.6%
O=C(c1cc2cc(O)ccc2[nH]1)c1cc2cc(O)ccc2[nH]1: 89.6%

Block 2 — observed: enzyme activity; mode: inhibitor; concentration: 10 µM; measurement: inhibition
Target: Calcium/calmodulin-dependent protein kinase type II subunit alpha (CAMK2A, Homo sapiens, UniProt Q9UQM7)
Chain of UniProt Q9UQM7 (whole entry, looked up): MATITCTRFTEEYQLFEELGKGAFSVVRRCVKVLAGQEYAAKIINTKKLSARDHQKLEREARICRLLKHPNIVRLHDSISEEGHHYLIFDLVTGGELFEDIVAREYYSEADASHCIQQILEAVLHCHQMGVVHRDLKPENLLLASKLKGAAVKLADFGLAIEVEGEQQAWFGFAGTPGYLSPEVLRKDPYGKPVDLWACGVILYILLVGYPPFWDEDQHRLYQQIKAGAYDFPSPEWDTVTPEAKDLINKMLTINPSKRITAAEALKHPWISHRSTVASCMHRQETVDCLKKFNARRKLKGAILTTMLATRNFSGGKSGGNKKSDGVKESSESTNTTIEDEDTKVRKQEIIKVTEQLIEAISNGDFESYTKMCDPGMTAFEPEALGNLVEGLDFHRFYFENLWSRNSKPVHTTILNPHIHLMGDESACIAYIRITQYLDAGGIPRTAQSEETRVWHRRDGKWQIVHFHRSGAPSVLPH
COc1cc(O)c2c(=O)c(O[C@@H]3O[C@H](CO)[C@@H](O)[C@H](O)[C@H]3O)c(-c3ccc(O[C@@H]4O[C@H](CO)[C@@H](O)[C@H](O)[C@H]4O)cc3)oc2c1: -44%
CNCC[C@H](Oc1cccc2ccccc12)c1cccs1: 7%
CC1(C)CC[C@]2(C(=O)O)[C@H](O)C[C@]3(C)C(=CC[C@@H]4[C@@]5(C)CC[C@H](O)[C@@](C)(C=O)[C@@H]5CC[C@]43C)[C@@H]2C1: -10%
CCCCCCCCCCCCCCCCCCCCCCCCCCCC(=O)O: -5%
C[C@@H]1O[C@@H](Oc2c(-c3ccc(O)c(O)c3)oc3cc(O)cc(O)c3c2=O)[C@H](O)[C@H](O)[C@H]1O: -1%
Cc1[nH]c2ccccc2c1CCNCc1ccc(/C=C/C(=O)NO)cc1: 7%
O=C(O)c1cccc(-c2noc(-c3ccccc3F)n2)c1: 3%
COc1cc2c(c(OC)c1OC)C(=O)c1c(cc(C)c(O)c1OC)C2=O: 1%
CCCCc1nc2cc(/C=C/C(=O)NO)ccc2n1CCN(CC)CC: 18%
CCCOc1ccc(S(=O)(=O)NCCC2CCCN2C)cc1-c1nc2c(CCC)nn(C)c2c(=O)[nH]1 (stereo not shown): -10%
O=C1C[C@@H](c2ccc(O[C@@H]3O[C@H](CO)[C@@H](O)[C@H](O)[C@H]3O)cc2)Oc2cc(O[C@@H]3OC[C@](O)(CO)[C@H]3O)ccc21: -31%
O=C(O)c1ccccc1Nc1cc(Cl)ccc1C(=O)O: -14%

Block 3 — observed: cell-free assay; method: competition with immobilised ligand; concentration: 1 µM; measurement: remaining binding
SMILES: CCS(=O)(=O)c1cc2cc(C[C@@](O)(CC(C)(C)c3ccc(F)cc3C(N)=O)C(F)(F)F)[nH]c2cn1
MAP2K6 (Homo sapiens, UniProt P52564): 84%
MAP2K2 (Homo sapiens, UniProt P36507): 67%
CAMK1G (Homo sapiens, UniProt Q96NX5): 100%
Tyrosine-protein kinase ABL1, non-phosphorylated (ABL1, Homo sapiens, UniProt P00519, F317L): 90%
WNK3 (Homo sapiens, UniProt Q9BYP7): 100%
PIK3CD (Homo sapiens, UniProt O00329): 90%
LRRK2 (Homo sapiens, UniProt Q5S007, G2019S): 100%
KIT (Homo sapiens, UniProt P10721, D816V): 90%
PIK3C3 (Homo sapiens, UniProt Q8NEB9): 96%
CDK14 (Homo sapiens, UniProt O94921): 100%
EGFR (Homo sapiens, UniProt P00533, del747-752/P753S): 69%
EPHA7 (Homo sapiens, UniProt Q15375): 94%
DCLK3 (Homo sapiens, UniProt Q9C098): 100%
MAP2K1 (Homo sapiens, UniProt Q02750): 68%
CAMK2G (Homo sapiens, UniProt Q13555): 77%
CLK3 (Homo sapiens, UniProt P49761): 100%

Block 4 — cell line: mouse MPNST tumor cells; method: high-content nuclear imaging; item: cell number; concentration: 10 µM; time: 12 h; notes: mean of 2 replicates; relative to: plate mean; reading: higher = more cells; measurement: nuclei count
Nc1[nH]nc2nnc(-c3c(-c4ccccc4)nn4ccccc34)cc12: 1.94 z-score
C[C@H](NCc1ccc(OCc2ccccc2F)cc1)C(N)=O: 2.38 z-score
Cc1ncsc1-c1ccc(CNC(=O)[C@@H]2C[C@@H](O)CN2C(=O)[C@@H](NC(=O)C2(C#N)CC2)C(C)(C)C)cc1: 1.48 z-score
CC[N+](C)(C)c1cccc(O)c1: 3.64 z-score
COc1ccc(COc2ccc(CC#N)cc2)cc1: 2.4 z-score
CCN(CC)CCOC(=O)c1ccc(N)cc1: 0.271 z-score
CCOC(=O)C1Cc2ccccc2CN1C(=O)c1ccc(SC)s1 (stereo not shown): 1.44 z-score
O=C1C(=Cc2cccnc2)C(=O)c2ccccc21: 0.497 z-score
N[C@@H](Cc1cc(CP(=O)(O)O)cc(-c2ccccc2Cl)c1)C(=O)O: 1.66 z-score
CN1C(C)(C)CCCC1(C)C: 1.36 z-score
CC/C(=C(\c1ccccc1)c1ccc(OCCN(C)C)cc1)c1ccccc1: -6.32 z-score
c1cc(OCCN2CCCCC2)cc(-c2n[nH]c3ccc(-c4nnc[nH]4)cc23)c1: 2.44 z-score
COC(=O)Nc1ccc(-c2nc(N3CCOCC3)c3cnn(C4CCN(Cc5cccnc5)CC4)c3n2)cc1: -3.76 z-score

For quick reference, copied from above (block 4):
c1cc(OCCN2CCCCC2)cc(-c2n[nH]c3ccc(-c4nnc[nH]4)cc23)c1: 2.44 z-score
COc1ccc(COc2ccc(CC#N)cc2)cc1: 2.4 z-score
COC(=O)Nc1ccc(-c2nc(N3CCOCC3)c3cnn(C4CCN(Cc5cccnc5)CC4)c3n2)cc1: -3.76 z-score
